# Assay results collected from several papers.
# Each numbered part is a random draw from the data of one study; scales do not carry over between parts.
# Chain of UniProt Q9NYY3 (whole entry, looked up): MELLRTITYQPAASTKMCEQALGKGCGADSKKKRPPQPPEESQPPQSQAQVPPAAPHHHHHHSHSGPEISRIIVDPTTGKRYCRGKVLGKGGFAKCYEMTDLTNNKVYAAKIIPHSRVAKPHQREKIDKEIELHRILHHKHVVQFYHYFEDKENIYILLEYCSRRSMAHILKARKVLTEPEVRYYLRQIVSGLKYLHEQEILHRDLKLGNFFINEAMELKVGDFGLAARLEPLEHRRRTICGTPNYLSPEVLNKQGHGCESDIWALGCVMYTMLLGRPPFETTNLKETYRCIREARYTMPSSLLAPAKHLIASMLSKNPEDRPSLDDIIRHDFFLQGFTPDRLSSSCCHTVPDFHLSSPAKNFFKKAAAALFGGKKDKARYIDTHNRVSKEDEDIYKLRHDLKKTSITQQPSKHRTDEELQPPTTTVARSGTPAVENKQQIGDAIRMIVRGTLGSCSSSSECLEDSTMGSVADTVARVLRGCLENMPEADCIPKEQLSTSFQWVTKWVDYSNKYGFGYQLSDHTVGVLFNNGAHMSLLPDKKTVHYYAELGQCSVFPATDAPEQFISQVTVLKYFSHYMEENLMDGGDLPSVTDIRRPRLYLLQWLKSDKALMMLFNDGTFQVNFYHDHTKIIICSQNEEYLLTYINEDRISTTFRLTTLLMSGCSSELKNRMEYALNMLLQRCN
# Chain of UniProt Q86YV6 (whole entry, looked up): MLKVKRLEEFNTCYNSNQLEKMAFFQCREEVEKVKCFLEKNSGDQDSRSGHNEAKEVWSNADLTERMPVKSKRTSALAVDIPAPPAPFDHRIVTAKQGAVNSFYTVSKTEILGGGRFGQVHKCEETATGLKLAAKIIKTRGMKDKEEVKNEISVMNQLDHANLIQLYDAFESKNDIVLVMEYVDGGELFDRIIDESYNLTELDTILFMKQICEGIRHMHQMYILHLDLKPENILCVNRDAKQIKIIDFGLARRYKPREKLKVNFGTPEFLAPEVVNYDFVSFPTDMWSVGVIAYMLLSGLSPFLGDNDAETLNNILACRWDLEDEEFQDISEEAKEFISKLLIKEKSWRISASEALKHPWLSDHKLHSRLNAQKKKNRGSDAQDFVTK
# Chain of UniProt O15264 (whole entry, looked up): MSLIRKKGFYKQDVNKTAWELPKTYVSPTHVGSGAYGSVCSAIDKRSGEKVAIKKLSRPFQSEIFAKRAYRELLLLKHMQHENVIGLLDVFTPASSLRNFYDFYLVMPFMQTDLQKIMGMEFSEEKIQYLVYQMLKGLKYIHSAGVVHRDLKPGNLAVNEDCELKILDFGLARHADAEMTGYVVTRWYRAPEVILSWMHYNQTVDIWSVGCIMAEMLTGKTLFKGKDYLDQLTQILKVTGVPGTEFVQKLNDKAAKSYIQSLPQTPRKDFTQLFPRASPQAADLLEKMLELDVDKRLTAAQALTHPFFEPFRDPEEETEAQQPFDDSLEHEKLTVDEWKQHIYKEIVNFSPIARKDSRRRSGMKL
# Chain of UniProt Q6ZN16 (whole entry, looked up): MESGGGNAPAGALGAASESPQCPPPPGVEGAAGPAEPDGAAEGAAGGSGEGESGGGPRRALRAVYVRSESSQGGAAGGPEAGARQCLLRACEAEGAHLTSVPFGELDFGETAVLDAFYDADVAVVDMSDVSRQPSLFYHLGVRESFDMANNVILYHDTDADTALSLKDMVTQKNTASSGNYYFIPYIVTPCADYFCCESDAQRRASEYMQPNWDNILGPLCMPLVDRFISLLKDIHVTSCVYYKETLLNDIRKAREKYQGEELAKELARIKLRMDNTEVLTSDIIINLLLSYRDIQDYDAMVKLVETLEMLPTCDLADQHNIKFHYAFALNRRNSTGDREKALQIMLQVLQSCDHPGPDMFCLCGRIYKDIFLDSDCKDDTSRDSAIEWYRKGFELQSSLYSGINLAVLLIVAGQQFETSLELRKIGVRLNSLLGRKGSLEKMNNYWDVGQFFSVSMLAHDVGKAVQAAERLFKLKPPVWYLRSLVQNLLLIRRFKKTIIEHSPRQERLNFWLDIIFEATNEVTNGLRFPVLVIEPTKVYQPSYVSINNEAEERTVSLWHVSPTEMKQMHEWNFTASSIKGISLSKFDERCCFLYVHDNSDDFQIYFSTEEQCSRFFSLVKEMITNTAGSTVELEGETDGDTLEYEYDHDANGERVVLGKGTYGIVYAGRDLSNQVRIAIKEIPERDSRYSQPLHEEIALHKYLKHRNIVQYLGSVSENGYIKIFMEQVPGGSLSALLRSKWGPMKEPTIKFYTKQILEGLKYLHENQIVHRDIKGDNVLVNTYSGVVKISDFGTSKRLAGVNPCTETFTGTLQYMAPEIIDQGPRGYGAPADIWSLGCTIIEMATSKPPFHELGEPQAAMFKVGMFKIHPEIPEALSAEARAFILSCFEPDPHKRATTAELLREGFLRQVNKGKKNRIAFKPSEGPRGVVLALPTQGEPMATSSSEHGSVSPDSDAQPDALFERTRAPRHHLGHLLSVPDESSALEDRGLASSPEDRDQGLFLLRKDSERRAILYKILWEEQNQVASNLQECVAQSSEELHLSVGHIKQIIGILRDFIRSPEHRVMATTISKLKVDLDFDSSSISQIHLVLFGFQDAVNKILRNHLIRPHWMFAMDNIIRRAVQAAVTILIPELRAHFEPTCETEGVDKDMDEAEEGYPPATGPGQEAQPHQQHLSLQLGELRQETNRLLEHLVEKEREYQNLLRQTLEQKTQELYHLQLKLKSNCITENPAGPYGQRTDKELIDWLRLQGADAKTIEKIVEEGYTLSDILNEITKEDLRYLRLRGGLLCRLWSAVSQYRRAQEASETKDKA
# Chain of UniProt P42336 (whole entry, unmodified, looked up): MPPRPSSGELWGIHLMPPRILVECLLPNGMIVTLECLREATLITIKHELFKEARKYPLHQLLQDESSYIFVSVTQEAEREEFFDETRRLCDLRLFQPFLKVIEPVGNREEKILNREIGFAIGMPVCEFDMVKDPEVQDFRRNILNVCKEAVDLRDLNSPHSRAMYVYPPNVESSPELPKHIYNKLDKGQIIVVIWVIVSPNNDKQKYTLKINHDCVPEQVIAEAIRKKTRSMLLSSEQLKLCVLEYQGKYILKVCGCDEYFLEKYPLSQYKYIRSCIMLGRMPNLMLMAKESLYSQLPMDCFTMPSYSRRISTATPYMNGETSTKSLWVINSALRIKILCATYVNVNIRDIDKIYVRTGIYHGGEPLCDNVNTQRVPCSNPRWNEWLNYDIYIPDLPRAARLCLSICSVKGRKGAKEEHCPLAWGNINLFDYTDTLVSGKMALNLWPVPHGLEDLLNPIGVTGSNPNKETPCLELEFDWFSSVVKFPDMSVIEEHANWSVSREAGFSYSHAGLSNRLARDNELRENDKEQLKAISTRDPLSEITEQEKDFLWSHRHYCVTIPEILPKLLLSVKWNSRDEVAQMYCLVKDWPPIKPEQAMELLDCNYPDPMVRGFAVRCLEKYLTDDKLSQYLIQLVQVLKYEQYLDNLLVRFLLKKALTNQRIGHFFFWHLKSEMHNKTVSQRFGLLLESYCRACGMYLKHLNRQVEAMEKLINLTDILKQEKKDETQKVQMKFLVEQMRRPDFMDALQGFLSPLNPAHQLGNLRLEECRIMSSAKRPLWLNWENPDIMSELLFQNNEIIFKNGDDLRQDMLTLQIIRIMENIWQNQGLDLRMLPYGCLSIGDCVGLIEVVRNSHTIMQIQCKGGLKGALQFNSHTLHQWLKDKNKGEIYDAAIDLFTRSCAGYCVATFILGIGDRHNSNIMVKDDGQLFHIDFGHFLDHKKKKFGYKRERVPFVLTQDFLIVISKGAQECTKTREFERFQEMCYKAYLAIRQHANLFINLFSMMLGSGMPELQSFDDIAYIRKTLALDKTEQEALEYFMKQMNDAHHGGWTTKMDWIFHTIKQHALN
# Chain of UniProt P10721 (whole entry, looked up): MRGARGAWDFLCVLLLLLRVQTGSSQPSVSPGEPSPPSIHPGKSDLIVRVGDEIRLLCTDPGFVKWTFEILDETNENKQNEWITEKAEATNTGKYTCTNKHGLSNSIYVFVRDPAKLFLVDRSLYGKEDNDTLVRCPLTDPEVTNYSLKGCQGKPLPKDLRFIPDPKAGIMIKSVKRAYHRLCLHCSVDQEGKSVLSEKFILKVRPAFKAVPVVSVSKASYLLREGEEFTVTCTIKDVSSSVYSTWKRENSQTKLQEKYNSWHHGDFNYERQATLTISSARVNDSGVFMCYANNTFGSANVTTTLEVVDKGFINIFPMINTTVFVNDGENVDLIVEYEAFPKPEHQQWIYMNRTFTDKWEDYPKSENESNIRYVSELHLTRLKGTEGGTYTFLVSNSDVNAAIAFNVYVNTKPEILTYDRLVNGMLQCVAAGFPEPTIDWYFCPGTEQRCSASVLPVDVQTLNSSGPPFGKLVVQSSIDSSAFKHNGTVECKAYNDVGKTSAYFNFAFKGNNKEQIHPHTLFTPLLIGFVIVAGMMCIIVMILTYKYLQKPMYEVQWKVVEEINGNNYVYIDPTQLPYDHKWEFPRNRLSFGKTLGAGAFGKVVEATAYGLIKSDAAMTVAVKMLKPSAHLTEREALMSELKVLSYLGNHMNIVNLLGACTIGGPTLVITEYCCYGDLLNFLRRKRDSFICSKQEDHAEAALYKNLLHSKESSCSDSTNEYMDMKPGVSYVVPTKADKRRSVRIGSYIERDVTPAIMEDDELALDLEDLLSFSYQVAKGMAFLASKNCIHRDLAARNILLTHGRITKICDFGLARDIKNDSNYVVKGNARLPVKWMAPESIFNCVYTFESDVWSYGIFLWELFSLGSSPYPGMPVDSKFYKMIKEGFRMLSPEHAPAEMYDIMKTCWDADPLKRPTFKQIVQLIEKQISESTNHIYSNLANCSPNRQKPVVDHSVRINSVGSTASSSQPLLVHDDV

# Series 1
# Structure (SMILES): COc1cc(C(=O)N2CCC(N3CCN(C)CC3)CC2)ccc1Nc1ncc2c(n1)N(C)c1ccccc1C(=O)N2C
tested on,test,test system,conditions,inhibition [%]
SGK3 (mouse),"probe labelling, KiNativ, refers to: FYAVkVLQK peptide, LYS1 site",brain tissue lysate (mouse),"1 µM, together with: ADP acyl-phosphate probe",-17.2
human PBMC,"probe labeling, inhibitor, KiNativ profiling, refers to: FYAVkVLQK",cell lysate,"concentration not given, LYS1 site, together with: ADP acyl-phosphate probe 1 µM",-7.7
MAP2K6 (mouse),"probe labelling, KiNativ ATP probe",mouse brain lysate,"0.1 µM, LYS2 labelled site",-6.7
MAP2K6 (mouse),"probe labelling, KiNativ ADP probe",mouse brain lysate,"0.1 µM, LYS2 labelled site",-2.1
mouse PFTAIRE1,"probe labelling, KiNativ ADP probe",mouse brain lysate,"1 µM, LYS1 site LVALkVIR",-9.3
ILK (mouse),"probe labelling, KiNativ, refers to: WQGNDIVVkVLK peptide, LYS1 site",brain tissue lysate (mouse),"0.1 µM, together with: ATP acyl-phosphate probe",-6.6
human PBMC,"probe labeling, inhibitor, KiNativ profiling, refers to: DIkPSNILLDR",cell lysate,"1 µM, LYS2 site, together with: ATP acyl-phosphate probe",-3.7
SYK human,KiNativ profiling,human PBMC,"1 µM, LYS1 site, together with: ADP acyl phosphate probe",10.3
RSK3 domain 1 (mouse),"probe labelling, inhibitor, KiNativ ActivX ADP probe",mouse brain lysate,"0.1 µM, activation loop peptide",-4.1
mouse CaMK2δ,"probe labelling, KiNativ ATP probe",mouse brain lysate,0.1 µM,-6.7
mouse FER,"probe labelling, KiNativ ATP probe",mouse brain lysate,"0.1 µM, activation loop site",-8
"Serine/threonine-protein kinase MARK2 (Mark2, Mus musculus, UniProt Q05512)",KiNativ profiling,mouse brain lysate,"0.1 µM, LYS1 site, together with: ATP acyl phosphate probe",-16.1
MARK3 and MARK4 (mouse),"probe labelling, KiNativ, refers to: EVAIkIIDK peptide, LYS1 site",brain tissue lysate (mouse),"1 µM, together with: ADP acyl-phosphate probe",-5
mouse NUAK1,"probe labelling, KiNativ ATP probe",mouse brain lysate,0.1 µM,4.1

# Series 2
# Target: Bromodomain-containing protein 4, BD1 (BRD4, Homo sapiens, UniProt O60885)
# Read-out: acetyl-histone H4 peptide binding
# Method: AlphaScreen displacement
# Concentration: 50 µM
Structure (SMILES),inhibition [%]
CCOC(=O)c1[nH]c2ccc(F)cc2c1NC(=O)c1ccccc1C(=O)O,4
COc1ccc(-c2nsc3c(=O)[nH]cnc23)cc1,28.7
COc1ccc(Nc2ncc(F)c(Nc3ccc(OC)cc3)n2)cc1,28.3
CN(C)CC1CCn2cc(c3ccccc32)C2=C(C(=O)NC2=O)c2cn(c3ccccc23)CCO1 (centres unmarked),91
COc1ccc(-c2nnc3ccc(SCc4cccnc4)nn23)cc1OC,18.1
O=C1NC(=O)C(=Cc2cccc(OCc3ccc(Cl)cc3Cl)c2)S1,-2.05
O=C(O)Cc1cc(Cl)c2oc(-c3ccccc3)c(O)c(=O)c2c1,43.5
O=C1Cc2c([nH]c3ccc(Br)cc23)-c2ccccc2N1,20.8
Nc1nc(SCc2ccc(Cl)cc2Cl)c2nc[nH]c2n1,32.6
c1ccc(-c2cnc3c(N4CCOCC4)nccn23)cc1,16.8
O=C(CSc1ccc2nnc(-c3cccc(F)c3)n2n1)NCc1ccc(F)cc1,19.6
O=c1c2ccccc2[nH]c(=S)n1CCN1CCC(=C(c2ccc(F)cc2)c2ccc(F)cc2)CC1,42.9
O=C(Cc1ccc(-c2ccc(OCCN3CCOCC3)cc2)cn1)NCc1ccccc1,9.3
Br.CC(=O)c1cccc(Nc2nc(-c3c(C)nc4ccccn34)cs2)c1,24.9
COc1cc2c(Nc3ccc(Br)cc3F)ncnc2cc1OCC1CCN(C)CC1,2.35
Cc1cc(NC(=O)c2sc(Nc3ccccc3)nc2N)no1,28.3
COc1ccc(C(=O)c2sc(Nc3cccc(C(F)(F)F)c3)nc2N)cc1,10.4
N#CC(=C(N)Sc1ccc(N)cc1)c1ccccc1C(F)(F)F,6.5
Cc1cc(O)c2c(c1)C(=O)c1cc(O)cc(O)c1C2=O,51.8

# Series 3
# SMILES: CC(C)(C)n1nc(Cc2cccc3ccccc23)c2c(N)ncnc21
# Read-out: enzyme activity
# Action: inhibitor
# Concentration: 0.5 µM
# Reference: control
target,remaining activity [%]
"PRKG1 (Homo sapiens, UniProt Q13976)",95.1
"PLK2 (Homo sapiens, UniProt Q9NYY3)",97.6
"PRKCI (Homo sapiens, UniProt P41743)",98.9
"IRAK4 (Homo sapiens, UniProt Q9NWZ3)",90.4
"EPHA5 (Homo sapiens, UniProt P54756)",43.5
"NEK4 (Homo sapiens, UniProt P51957)",102
"MAP2K6 (Homo sapiens, UniProt P52564)",91.1
"STK38 (Homo sapiens, UniProt Q15208)",96.4
"MAPK12 (Homo sapiens, UniProt P53778)",86.6
"LYN (Homo sapiens, UniProt P07948)",52.6
"MAP3K10 (Homo sapiens, UniProt Q02779)",90.4
"LRRK2 (Homo sapiens, UniProt Q5S007)",90.9
"CHEK1 (Homo sapiens, UniProt O14757)",110
"PRKCD (Homo sapiens, UniProt Q05655)",98.7
"CSNK2A1 (Homo sapiens, UniProt P68400)",99.1
"MAP4K2 (Homo sapiens, UniProt Q12851)",91.3
"Cyclin-dependent kinase 9, with cyclin T1 (CDK9, Homo sapiens, UniProt P50750)",102
"MKNK2 (Homo sapiens, UniProt Q9HBH9)",93.4
"AKT3 (Homo sapiens, UniProt Q9Y243)",96.9
"BTK (Homo sapiens, UniProt Q06187)",41.8
"MAPK13 (Homo sapiens, UniProt O15264)",105
"KIT (Homo sapiens, UniProt P10721)",84.6

# Series 4
# Structure (SMILES): c1ccc(N2CCN(Cc3nc4ccccc4[nH]3)CC2)nc1
# Method: competition with immobilised ligand
# Concentration: 1 µM
target,read-out,remaining binding [%]
"BMPR2 (Homo sapiens, UniProt Q13873)",cell-free assay,100
"CSNK1D (Homo sapiens, UniProt P48730)",cell-free assay,95
"DAPK3 (Homo sapiens, UniProt O43293)",binding,91
"DYRK1B (Homo sapiens, UniProt Q9Y463)",cell-free assay,100
"CASK (Homo sapiens, UniProt O14936)",binding,97
"MAP3K13 (Homo sapiens, UniProt O43283)",binding,86
"TXK (Homo sapiens, UniProt P42681)",binding,95
"PLK2 (Homo sapiens, UniProt Q9NYY3)",binding,100
"STK3 (Homo sapiens, UniProt Q13188)",binding,100
"CDK14 (Homo sapiens, UniProt O94921)",binding,100
"SRC (Homo sapiens, UniProt P12931)",cell-free assay,93
"CHUK (Homo sapiens, UniProt O15111)",cell-free assay,100
"EPHA7 (Homo sapiens, UniProt Q15375)",cell-free assay,100
"Ribosomal protein S6 kinase alpha-6, N-terminal kinase domain (RPS6KA6, Homo sapiens, UniProt Q9UK32)",binding,100
"MET (Homo sapiens, UniProt P08581, M1250T)",cell-free assay,100
"MAP2K5 (Homo sapiens, UniProt Q13163)",binding,83
"PIK3CA (Homo sapiens, UniProt P42336, E542K)",cell-free assay,100
"GSK3B (Homo sapiens, UniProt P49841)",cell-free assay,93
"MYLK4 (Homo sapiens, UniProt Q86YV6)",cell-free assay,97
"MET (Homo sapiens, UniProt P08581, Y1235D)",cell-free assay,100
"BMPR1B (Homo sapiens, UniProt O00238)",cell-free assay,100
"MAP2K2 (Homo sapiens, UniProt P36507)",binding,100
"NEK9 (Homo sapiens, UniProt Q8TD19)",binding,100
"CSNK2A2 (Homo sapiens, UniProt P19784)",cell-free assay,100
"MAP3K15 (Homo sapiens, UniProt Q6ZN16)",binding,100

# Excerpt of the above (series 3):
target,remaining activity [%]
"PLK2 (Homo sapiens, UniProt Q9NYY3)",97.6
"PRKCI (Homo sapiens, UniProt P41743)",98.9
"IRAK4 (Homo sapiens, UniProt Q9NWZ3)",90.4
"EPHA5 (Homo sapiens, UniProt P54756)",43.5
"NEK4 (Homo sapiens, UniProt P51957)",102
"MAP2K6 (Homo sapiens, UniProt P52564)",91.1
"STK38 (Homo sapiens, UniProt Q15208)",96.4
"MAPK12 (Homo sapiens, UniProt P53778)",86.6
"LYN (Homo sapiens, UniProt P07948)",52.6
"MAP3K10 (Homo sapiens, UniProt Q02779)",90.4
"LRRK2 (Homo sapiens, UniProt Q5S007)",90.9
"CHEK1 (Homo sapiens, UniProt O14757)",110
"PRKCD (Homo sapiens, UniProt Q05655)",98.7
